{"data": "Assay results of several laboratories", "note": "Each numbered part is a random draw from the data of one study; scales do not carry over between parts. Substitutions count along the parent as printed.", "sequence of UniProt Q13557 (whole entry, looked up)": "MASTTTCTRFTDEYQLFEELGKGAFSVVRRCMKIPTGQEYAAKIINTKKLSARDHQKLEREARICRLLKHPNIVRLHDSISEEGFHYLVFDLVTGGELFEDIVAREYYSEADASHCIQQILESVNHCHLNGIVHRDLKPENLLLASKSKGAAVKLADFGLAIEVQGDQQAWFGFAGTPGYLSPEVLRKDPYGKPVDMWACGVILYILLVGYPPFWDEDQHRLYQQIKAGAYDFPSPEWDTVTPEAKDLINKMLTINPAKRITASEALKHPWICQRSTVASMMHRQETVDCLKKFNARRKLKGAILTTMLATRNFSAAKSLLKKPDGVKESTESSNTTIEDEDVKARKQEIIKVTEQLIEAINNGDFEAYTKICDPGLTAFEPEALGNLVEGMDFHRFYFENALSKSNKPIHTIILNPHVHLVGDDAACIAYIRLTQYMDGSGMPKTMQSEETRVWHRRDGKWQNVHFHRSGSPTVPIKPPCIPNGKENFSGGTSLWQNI"}
{"data": "Set 1", "target": "CCND1, cyclin fold, Cln2 fusion (human)", "method": "yeast growth competition, sequencing", "medium": "yeast", "notes": "strong parent motif", "baseline": "not given", "reading": "higher = stronger binding", "parent": "viral docking peptide; KGVKRKLFAEDSS; partner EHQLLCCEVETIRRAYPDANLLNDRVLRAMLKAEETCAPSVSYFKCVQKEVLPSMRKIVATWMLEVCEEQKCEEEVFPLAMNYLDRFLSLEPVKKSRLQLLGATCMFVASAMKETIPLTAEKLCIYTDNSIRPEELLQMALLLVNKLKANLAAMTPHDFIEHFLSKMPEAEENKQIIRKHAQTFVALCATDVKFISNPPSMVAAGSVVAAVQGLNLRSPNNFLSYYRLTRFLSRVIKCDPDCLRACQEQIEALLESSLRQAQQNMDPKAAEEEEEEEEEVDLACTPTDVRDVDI"}
{"Substitution": "KGVKRKKFAEDSS [L7K]", "normalised enrichment score": 0.36}
{"Substitution": "KGVKRKLFAEASS [D11A]", "normalised enrichment score": 0.771}
{"Substitution": "KGVKRKLEAEDSS [F8E]", "normalised enrichment score": 0.154}
{"Substitution": "KGVKRKLFCEDSS [A9C]", "normalised enrichment score": 1.3}
{"Substitution": "KGWKRKLFAEDSS [V3W]", "normalised enrichment score": 0.18}
{"Substitution": "KGVKRKLFWEDSS [A9W]", "normalised enrichment score": 0.101}
{"Substitution": "KGVKRKLFAEDFS [S12F]", "normalised enrichment score": 1.34}
{"Substitution": "KGVKAKAFAEDSS [R5A L7A]", "normalised enrichment score": 0.11}
{"data": "Set 2", "target": "inorganic phosphate, free oxyanion", "method": "microfluidic competitive inhibition", "medium": "in vitro, cell-free expressed", "concentration": "not given", "notes": "derived from inhibition constants, unchanged parent 615000 nM", "reading": "lower = stronger binding", "parent": "PafA, mature enzyme, eGFP fusion (Elizabethkingia meningoseptica, UniProt Q9KJX5); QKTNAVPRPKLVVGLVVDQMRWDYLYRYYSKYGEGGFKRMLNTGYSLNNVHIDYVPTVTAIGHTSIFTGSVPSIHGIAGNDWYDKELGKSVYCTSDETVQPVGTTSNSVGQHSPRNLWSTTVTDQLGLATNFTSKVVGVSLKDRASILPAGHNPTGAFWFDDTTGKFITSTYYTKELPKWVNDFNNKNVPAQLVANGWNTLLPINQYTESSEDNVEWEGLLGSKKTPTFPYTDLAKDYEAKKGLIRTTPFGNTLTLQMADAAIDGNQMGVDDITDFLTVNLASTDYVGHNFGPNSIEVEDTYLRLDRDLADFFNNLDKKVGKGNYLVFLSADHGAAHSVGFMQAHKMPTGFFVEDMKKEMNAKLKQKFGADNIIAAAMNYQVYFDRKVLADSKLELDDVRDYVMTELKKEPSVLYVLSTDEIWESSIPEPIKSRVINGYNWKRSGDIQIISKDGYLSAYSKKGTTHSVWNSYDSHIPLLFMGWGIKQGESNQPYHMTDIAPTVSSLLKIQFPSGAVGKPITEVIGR"}
{"Substitution": "K393G", "phosphate dissociation constant [µM]": 576}
{"Substitution": "K10V", "phosphate dissociation constant [µM]": 537}
{"Substitution": "K452V", "phosphate dissociation constant [µM]": 507}
{"Substitution": "G340V", "phosphate dissociation constant [µM]": 585}
{"Substitution": "E216V", "phosphate dissociation constant [µM]": 638}
{"Substitution": "T497G", "phosphate dissociation constant [µM]": 515}
{"Substitution": "T349G", "phosphate dissociation constant [µM]": 526}
{"Substitution": "A145G", "phosphate dissociation constant [µM]": 884}
{"data": "Other studies, line by line", "OGT": "UDP-N-acetylglucosamine--peptide N-acetylglucosaminyltransferase 110 kDa subunit (OGT, Homo sapiens, UniProt O15294)", "sequence of UniProt O15294 (whole entry, looked up)": "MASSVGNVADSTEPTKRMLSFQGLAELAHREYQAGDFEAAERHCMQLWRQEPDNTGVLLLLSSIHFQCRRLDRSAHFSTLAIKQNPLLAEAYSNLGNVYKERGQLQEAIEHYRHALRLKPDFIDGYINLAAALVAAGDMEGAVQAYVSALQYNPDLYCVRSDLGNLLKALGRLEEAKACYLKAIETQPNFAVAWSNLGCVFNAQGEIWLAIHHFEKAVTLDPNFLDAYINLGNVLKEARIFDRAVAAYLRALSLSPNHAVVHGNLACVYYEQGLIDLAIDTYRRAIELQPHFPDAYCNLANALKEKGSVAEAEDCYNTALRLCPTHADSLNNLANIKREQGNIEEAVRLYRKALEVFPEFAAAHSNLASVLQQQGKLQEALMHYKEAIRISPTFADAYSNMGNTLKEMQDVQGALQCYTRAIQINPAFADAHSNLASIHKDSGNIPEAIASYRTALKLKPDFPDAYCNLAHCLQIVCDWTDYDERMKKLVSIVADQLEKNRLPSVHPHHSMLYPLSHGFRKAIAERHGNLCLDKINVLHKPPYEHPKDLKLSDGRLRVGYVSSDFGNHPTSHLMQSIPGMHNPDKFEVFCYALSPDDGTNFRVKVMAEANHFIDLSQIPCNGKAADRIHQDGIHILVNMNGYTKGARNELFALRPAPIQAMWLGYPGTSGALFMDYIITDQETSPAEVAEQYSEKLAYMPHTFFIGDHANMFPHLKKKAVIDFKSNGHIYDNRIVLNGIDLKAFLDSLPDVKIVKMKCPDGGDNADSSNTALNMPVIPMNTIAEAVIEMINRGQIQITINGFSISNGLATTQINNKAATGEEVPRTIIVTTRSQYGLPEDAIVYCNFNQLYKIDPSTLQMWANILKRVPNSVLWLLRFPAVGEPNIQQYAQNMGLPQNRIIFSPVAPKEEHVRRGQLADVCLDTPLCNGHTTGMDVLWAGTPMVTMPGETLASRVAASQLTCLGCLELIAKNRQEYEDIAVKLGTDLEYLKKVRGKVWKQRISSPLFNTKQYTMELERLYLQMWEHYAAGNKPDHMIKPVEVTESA"}
{"Substance": "VTPKDRYLPKYTITF", "target": "OGT", "test": "binding, phage display NGS", "system": "peptide", "conditions": "concentration not given, panning round 3", "how to read": "baseline: input library", "endpoint": "enrichment fold change", "value": 3.65}
{"Substance": "COC[C@H]1OC(=O)c2coc3c2[C@@]1(C)C1=C(C3=O)[C@@H]2CCC(=O)[C@@]2(C)C[C@H]1OC(C)=O", "target": "CAMK2D (Homo sapiens, UniProt Q13557)", "test": "enzyme activity, inhibitor", "conditions": "0.5 µM", "how to read": "baseline: control", "endpoint": "remaining activity", "value": "98.1%"}
{"Substance": "KDIRQDYLPFYQITV", "target": "OGT", "test": "binding, phage display NGS", "system": "peptide", "conditions": "concentration not given, panning round 3", "how to read": "baseline: input library", "endpoint": "enrichment fold change", "value": 3.84}
{"note": "Repeated from above (other studies, line by line):"}
{"Substance": "COC[C@H]1OC(=O)c2coc3c2[C@@]1(C)C1=C(C3=O)[C@@H]2CCC(=O)[C@@]2(C)C[C@H]1OC(C)=O", "target": "CAMK2D (Homo sapiens, UniProt Q13557)", "test": "enzyme activity, inhibitor", "conditions": "0.5 µM", "how to read": "baseline: control", "endpoint": "remaining activity", "value": "98.1%"}
{"Substance": "VTPKDRYLPKYTITF", "target": "OGT", "test": "binding, phage display NGS", "system": "peptide", "conditions": "concentration not given, panning round 3", "how to read": "baseline: input library", "endpoint": "enrichment fold change", "value": 3.65}
